Assay results gathered from unrelated publications.
± marks the error that the study gave.

Compound = CC[C@H](C)[C@H](NC(=O)[C@H](CCCCN)NC(=O)[C@H](CCCCN)NC(=O)[C@H](CC(C)C)NC(=O)[C@H](CCCCN)NC(=O)[C@H](CCC(=O)O)NC(=O)[C@H](CCCCN)NC(=O)[C@@H](NC(=O)[C@H](CCCCN)NC(=O)[C@H](CC(N)=O)NC(=O)[C@H](CCCNC(=N)N)NC(=O)[C@H](Cc1ccccc1)NC(=O)[C@H](CCCCN)NC(=O)[C@H](CCCNC(=N)N)NC(=O)[C@H](CC(C)C)NC(=O)[C@H](CCCNC(=N)N)NC(=O)[C@H](CCCCN)NC(=O)[C@H](CCCNC(=N)N)NC(=O)[C@@H](N)CC(C)C)[C@@H](C)CC)C(=O)NCC(=O)N[C@@H](CCC(N)=O)C(=O)N[C@@H](CCCCN)C(=O)N[C@H](C(=O)N[C@@H](CCC(N)=O)C(=O)NCC(=O)N[C@@H](Cc1ccccc1)C(=O)N[C@H](C(=O)N1CCC[C@H]1C(=O)N[C@@H](CCCCN)C(=O)N[C@@H](CC(C)C)C(=O)O)C(C)C)[C@@H](C)CC; organism = Salmonella; test = inhibition zone; test system = DZ.3G; setting = LB agar, overnight; endpoint = lethal concentration; result = 2.92 µM
Compound = O=C(C=CC(Cc1ccccc1)Nc1ccnc2cc(Cl)ccc12)NCCN1CCOCC1 (stereo not drawn); organism = Plasmodium berghei; test system = NK65, ICR mouse; setting = 30 mg/kg once daily, 6 days post-infection; endpoint = survival rate; result = 40%
Compound = CCN(CCCCOc1ccc(CCC(=O)N2CCC(Cc3ccccc3)CC2)cc1OC)Cc1ccccc1; organism = Danio rerio; test system = BuChE-overexpressing; setting = concentration not given; endpoint = BuChE activity; result = decreased
Compound = CC[C@@H]1NC(=O)[C@H]([C@H](O)[C@H](C)Cc2nc3ccc(C(=O)OC)cc3[nH]2)N(C)C(=O)[C@H](C(C)C)N(C)C(=O)[C@H](CC(C)C)N(C)C(=O)[C@H](CC(C)C)N(C)C(=O)[C@@H](C)NC(=O)[C@H](C)NC(=O)[C@H](CC(C)C)N(C)C(=O)[C@H](C(C)C)NC(=O)[C@H](CC(C)C)N(C)C(=O)CN(C)C1=O; organism = HCoV-NL63; test = Western blot; test system = Caco-2; endpoint = concentration abolishing N protein; result = > 5 µM
Compound = CC[C@H](C)[C@H](NC(=O)[C@H](Cc1c[nH]c2ccccc12)NC(=O)[C@H](CCCNC(=N)N)NC(=O)[C@H](CCC(N)=O)NC(=O)[C@@H](NC(=O)[C@H](Cc1c[nH]c2ccccc12)NC(=O)[C@H](CCCNC(=N)N)NC(=O)[C@H](CCCNC(=N)N)NC(=O)[C@H](C)NC(=O)[C@H](C)NC(=O)[C@H](C)NC(=O)[C@@H](NC(=O)[C@H](CCCCN)NC(=O)[C@@H]1CCCN1C(=O)[C@H](CCCNC(=N)N)NC(=O)[C@H](Cc1c[nH]c2ccccc12)NC(=O)[C@H](CCCNC(=N)N)NC(=O)[C@H](CCCNC(=N)N)NC(=O)[C@@H](NC(=O)[C@H](Cc1c[nH]c2ccccc12)NC(=O)[C@H](CCCNC(=N)N)NC(=O)[C@H](CCC(N)=O)NC(=O)[C@@H](NC(=O)[C@H](Cc1c[nH]c2ccccc12)NC(=O)[C@H](CCCNC(=N)N)NC(=O)[C@@H](N)CCCNC(=N)N)C(C)C)[C@@H](C)CC)C(C)C)C(C)C)C(=O)N[C@@H](CCCNC(=N)N)C(=O)N[C@@H](CCCNC(=N)N)C(=O)N[C@@H](Cc1c[nH]c2ccccc12)C(=O)N[C@@H](CCCNC(=N)N)C(=O)N1CCC[C@H]1C(=O)N[C@@H](CCCCN)C(=O)N[C@H](C(N)=O)C(C)C; organism = Malassezia furfur; test system = DTO 383-D9; setting = 3 h; endpoint = concentration for viability loss; result = 0.6 µM
Compound = CON(C(=O)c1cn(C)nc1C(F)F)C(C)Cc1c(Cl)cc(Cl)cc1Cl (stereo not drawn); organism = Alternaria solani; setting = 1.56 µg/mL; endpoint = inhibition; result = 82.7%
Compound = CN[C@@H]1[C@H](O)[C@H](NC)[C@H]2O[C@]3(O)[C@H](O[C@@H]2[C@H]1O)O[C@H](C)C[C@@]3(O)CNCc1ccc(Cl)cc1; organism = Haemophilus influenzae; test system = ATCC 49247; setting = 40 µg per disc; endpoint = inhibition zone diameter; result = 15 to 16 mm
Compound = CC(=O)N[C@H](CCCCN)C(=O)N[C@H](CC(C)C)C(=O)N[C@H](CCCCN)C(=O)N[C@H](CO)C(=O)N[C@H](CC(C)C)C(=O)N[C@H](CC(C)C)C(=O)N[C@H](CCCCN)C(=O)N[C@@H](C(=O)N[C@H](CC(C)C)C(=O)N[C@H](CO)C(=O)N[C@H](CCCCN)C(=O)N[C@H](C)C(=O)N[C@H](CCCCN)C(=O)N[C@H](CCCCN)C(=O)N[C@H](CCCCN)C(=O)N[C@H](CCCCN)C(=O)N[C@H](CC(C)C)C(=O)N[C@H](CCCCN)C(=O)N[C@@H](C(=O)N[C@H](CC(C)C)C(=O)N[C@H](CC(C)C)C(=O)N[C@H](CCCCN)C(=O)N[C@H](C)C(=O)N[C@H](CC(C)C)C(=O)N[C@H](CO)C(=O)N[C@H](CCCCN)C(N)=O)[C@H](C)O)[C@H](C)O; organism = Acinetobacter baumannii; test system = 11 isolates; scale = relative to: HC50 over geometric mean MIC; endpoint = therapeutic index; result = 3360
Compound = O=C(Cn1ccc(=O)c2ccccc21)N/N=C/c1cc(Br)c(O)c(Br)c1; organism = Alternaria solani; test = microbial growth; setting = 50 µg/mL; endpoint = inhibition; result = 30.8%
Compound = CN[C@@H]1[C@H](O)[C@H](NC)[C@H]2O[C@]3(O)[C@H](O[C@@H]2[C@H]1O)O[C@H](C)C[C@@]3(O)CNCc1ccccc1; organism = Neisseria gonorrhoeae; test system = ATCC 49226; setting = 40 µg per disc; endpoint = inhibition zone diameter; result = 15.5 to 16 mm
Compound = CC[C@H](C)[C@H](NC(=O)[C@H](CCCCN)NC(=O)[C@H](CCCCN)NC(=O)[C@H](CC(C)C)NC(=O)[C@H](CCCCN)NC(=O)[C@H](CCC(=O)O)NC(=O)[C@H](CCCCN)NC(=O)[C@@H](NC(=O)[C@H](CCCCN)NC(=O)[C@H](CC(N)=O)NC(=O)[C@H](CCCNC(=N)N)NC(=O)[C@H](Cc1ccccc1)NC(=O)[C@H](CCCCN)NC(=O)[C@H](CCCNC(=N)N)NC(=O)[C@H](CC(C)C)NC(=O)[C@H](CCCNC(=N)N)NC(=O)[C@H](CCCCN)NC(=O)[C@H](CCCNC(=N)N)NC(=O)[C@H](CC(C)C)NC(=O)[C@@H](N)CCCNC(=N)N)[C@@H](C)CC)C(=O)NCC(=O)N[C@@H](CCC(N)=O)C(=O)N[C@@H](CCCCN)C(=O)N[C@H](C(=O)N[C@@H](CCC(N)=O)C(=O)NCC(=O)N[C@@H](Cc1ccccc1)C(=O)N[C@H](C(=O)N1CCC[C@H]1C(=O)N[C@@H](CCCCN)C(=O)N[C@@H](CC(C)C)C(=O)N[C@@H](CCC(N)=O)C(=O)N1CCC[C@H]1C(=O)N[C@@H](CO)C(=O)N[C@@H](CCCCN)C(=O)N[C@@H](CCC(N)=O)C(=O)N[C@@H](CO)C(=O)O)C(C)C)[C@@H](C)CC; organism = Salmonella; test = inhibition zone; test system = ZQ.17N; setting = LB agar, overnight; endpoint = lethal concentration; result = 2.89 µM
Compound = CC[C@H](C)[C@H](NC(=O)[C@H](CC(C)C)NC(=O)[C@@H](NC(=O)[C@H](Cc1ccc(O)cc1)NC(=O)CNC(=O)CNC(=O)[C@H](CCCNC(=N)N)NC(=O)[C@H](CC(C)C)NC(=O)[C@H](CCCCN)NC(=O)[C@H](CC(C)C)NC(=O)[C@H](CCCCN)NC(=O)[C@H](CS)NC(=O)[C@H](CC(C)C)NC(=O)[C@H](Cc1c[nH]c2ccccc12)NC(=O)CNC(=O)[C@H](CCCCN)NC(=O)[C@H](CS)NC(=O)[C@@H]1CCCN1C(=O)[C@H](CCCCN)NC(=O)[C@H](CCCNC(=N)N)NC(=O)[C@H](CCCNC(=N)N)NC(=O)[C@H](CO)NC(=O)[C@@H](N)CO)[C@@H](C)O)C(=O)NCC(=O)N[C@@H](CO)C(=O)N[C@@H](C)C(=O)N[C@H](C(=O)N[C@@H](CC(N)=O)C(=O)N[C@@H](CC(C)C)C(=O)N[C@@H](CC(N)=O)C(=O)N[C@@H](CCCNC(=N)N)C(=O)N1CCC[C@H]1C(=O)N[C@H](C(=O)N[C@@H](Cc1ccc(O)cc1)C(=O)N[C@H](C(=O)N[C@@H](CCCNC(=N)N)C(=O)N[C@@H](C)C(=O)O)C(C)C)[C@@H](C)O)[C@@H](C)O; organism = bacteria; test = SYTOX Green uptake; setting = concentration not given; endpoint = killing time; result = ≤ 15 min
Compound = CC[C@H](C)[C@H](NC(=O)[C@H](CO)NC(=O)[C@H](CO)NC(=O)[C@H](Cc1ccccc1)NC(=O)CN)C(=O)N[C@@H](Cc1ccccc1)C(=O)N[C@@H](CCCNC(=N)N)C(N)=O; organism = Escherichia coli; test system = ATCC 8739; setting = 20% FBS; endpoint = MBC; result = > 128 µM
Compound = CN(C)CCNC(=O)/C=C/[C@H](Cc1ccccc1)Nc1ccnc2cc(Cl)ccc12; organism = Plasmodium berghei; test system = NAT atovaquone-resistant, ICR mouse infected; setting = 10 mg/kg, 0 days post infection before treatment; endpoint = body weight; result = 27.7 ± 1.97 g
Compound = CC[C@H](C)[C@H](NC(=O)[C@H](CCCCN)NC(=O)[C@H](CCCCN)NC(=O)[C@H](CC(C)C)NC(=O)[C@H](CCCCN)NC(=O)[C@H](CCC(=O)O)NC(=O)[C@H](CCCCN)NC(=O)[C@@H](NC(=O)[C@H](CCCCN)NC(=O)[C@H](CC(N)=O)NC(=O)[C@H](CCCNC(=N)N)NC(=O)[C@H](Cc1ccccc1)NC(=O)[C@H](CCCCN)NC(=O)[C@H](CCCNC(=N)N)NC(=O)[C@H](CC(C)C)NC(=O)[C@H](CCCNC(=N)N)NC(=O)[C@H](CCCCN)NC(=O)[C@H](CCCNC(=N)N)NC(=O)[C@H](CC(C)C)NC(=O)[C@@H](N)CC(C)C)[C@@H](C)CC)C(=O)NCC(=O)N[C@@H](CCC(N)=O)C(=O)N[C@@H](CCCCN)C(=O)N[C@H](C(=O)N[C@@H](CCC(N)=O)C(=O)NCC(=O)N[C@@H](Cc1ccccc1)C(=O)N[C@H](C(=O)N1CCC[C@H]1C(=O)N[C@@H](CCCCN)C(=O)N[C@@H](CC(C)C)C(=O)N[C@H](C(=O)N1CCC[C@H]1C(=O)N[C@@H](CCCNC(=N)N)C(=O)N[C@H](C(=O)N[C@@H](CCC(=O)O)C(=O)N[C@@H](CO)C(=O)O)[C@@H](C)O)C(C)C)C(C)C)[C@@H](C)CC; organism = Salmonella; test = inhibition zone; test system = DZ.3G; setting = LB agar, overnight; endpoint = lethal concentration; result = 3.7 µM
Compound = COC1=CC(c2ccc[nH]2)=NC1=CNC12CC3CC(CC(C3)C1)C2; organism = Plasmodium falciparum; test system = HepG2, D6; scale = relative to: HepG2 IC50 over D6 IC50; endpoint = selectivity index; result = 1060
Compound = O=P(O)(OCc1cccc2ccccc12)Oc1c2c(c(OP(=O)(O)OCc3cccc4ccccc34)c3c1C1CC3c3cc4c(cc31)C1CC4c3ccccc31)C1CC2c2cc3c(cc21)C1CC3c2ccccc21; organism = measles virus; test = viral infection, flow cytometry; test system = A549, vaccine strain GFP; setting = 2 days, virus pre-incubated 30 min 37 °C; endpoint = IC50; result = 3 µM
Compound = COc1ccc(N2C(=O)C=CC2=O)cc1; organism = Candida albicans; test = qRT-PCR, refers to: TEC1; setting = 1 µg/mL, 12 h; scale = relative to: untreated; endpoint = mRNA level; result = 0.36 fold
Compound = CC[C@H](C)[C@H](NC(=O)[C@H](CCCCN)NC(=O)[C@H](CCCCN)NC(=O)[C@H](CC(C)C)NC(=O)[C@H](CCCCN)NC(=O)[C@H](CCC(=O)O)NC(=O)[C@H](CCCCN)NC(=O)[C@@H](NC(=O)[C@H](CCCCN)NC(=O)[C@H](CC(N)=O)NC(=O)[C@H](CCCNC(=N)N)NC(=O)[C@H](Cc1ccccc1)NC(=O)[C@H](CCCCN)NC(=O)[C@H](CCCNC(=N)N)NC(=O)[C@H](CC(C)C)NC(=O)[C@H](CCCNC(=N)N)NC(=O)[C@H](CCCCN)NC(=O)[C@H](CCCNC(=N)N)NC(=O)[C@H](CC(C)C)NC(=O)CN)[C@@H](C)CC)C(=O)NCC(=O)N[C@@H](CCC(N)=O)C(=O)N[C@@H](CCCCN)C(=O)N[C@H](C(=O)N[C@@H](CCC(N)=O)C(=O)NCC(=O)N[C@@H](Cc1ccccc1)C(=O)N[C@H](C(=O)N1CCC[C@H]1C(=O)N[C@@H](CCCCN)C(=O)N[C@@H](CC(C)C)C(=O)N[C@@H](C)C(=O)N1CCC[C@H]1C(=O)N[C@@H](CCCNC(=N)N)C(=O)N[C@H](C(=O)N[C@@H](CC(=O)O)C(=O)N[C@@H](Cc1ccc(O)cc1)C(=O)O)[C@@H](C)O)C(C)C)[C@@H](C)CC; organism = Micrococcus luteus; test = inhibition zone; test system = CGMCC 1.029; endpoint = lethal concentration; result = 0.94 µM
Compound = COCCNc1nc(C(=O)NCc2ccc(F)cc2)c(O)c2ncccc12; organism = Human betaherpesvirus 5; test = viral replication, inhibitor; test system = HFF; setting = 10 µM; endpoint = inhibition; result = 21%
Compound = CCCCc1ccc(-c2nc(C)c(C(C)=NNC(=N)N)s2)cc1; organism = Staphylococcus aureus; test system = USA300 MRSA; endpoint = MBC; result = 1.3 µg/mL
